Experimental data of several laboratories.
Each numbered part is a random draw from the data of one study; scales do not carry over between parts. “And” joins repeats or separate records; there may be more than shown. Positions count from the first letter of the parent shown.
UniProt P49841, sequence (whole entry, looked up): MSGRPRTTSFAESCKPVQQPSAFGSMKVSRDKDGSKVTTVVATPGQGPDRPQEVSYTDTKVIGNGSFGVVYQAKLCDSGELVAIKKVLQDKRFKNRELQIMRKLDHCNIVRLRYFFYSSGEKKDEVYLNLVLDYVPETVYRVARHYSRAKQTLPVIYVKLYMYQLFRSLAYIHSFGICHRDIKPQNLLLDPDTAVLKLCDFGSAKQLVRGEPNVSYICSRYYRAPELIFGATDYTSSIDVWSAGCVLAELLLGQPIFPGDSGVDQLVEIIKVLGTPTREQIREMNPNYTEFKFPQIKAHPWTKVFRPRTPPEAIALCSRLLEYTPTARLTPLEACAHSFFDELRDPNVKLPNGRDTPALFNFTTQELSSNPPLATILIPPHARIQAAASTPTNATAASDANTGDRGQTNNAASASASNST
UniProt P35462, sequence (whole entry, looked up): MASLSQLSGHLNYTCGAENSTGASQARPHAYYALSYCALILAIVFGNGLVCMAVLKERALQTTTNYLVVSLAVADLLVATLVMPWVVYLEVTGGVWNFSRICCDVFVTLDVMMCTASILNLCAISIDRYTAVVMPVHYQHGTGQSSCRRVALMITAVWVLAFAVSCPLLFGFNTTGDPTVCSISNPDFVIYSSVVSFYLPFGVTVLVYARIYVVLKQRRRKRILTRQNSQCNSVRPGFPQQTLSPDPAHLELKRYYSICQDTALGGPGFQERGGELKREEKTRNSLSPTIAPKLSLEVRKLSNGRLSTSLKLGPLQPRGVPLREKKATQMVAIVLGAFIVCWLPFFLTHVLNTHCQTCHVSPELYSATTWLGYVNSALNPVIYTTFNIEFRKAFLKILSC
UniProt P06239, sequence (whole entry, looked up): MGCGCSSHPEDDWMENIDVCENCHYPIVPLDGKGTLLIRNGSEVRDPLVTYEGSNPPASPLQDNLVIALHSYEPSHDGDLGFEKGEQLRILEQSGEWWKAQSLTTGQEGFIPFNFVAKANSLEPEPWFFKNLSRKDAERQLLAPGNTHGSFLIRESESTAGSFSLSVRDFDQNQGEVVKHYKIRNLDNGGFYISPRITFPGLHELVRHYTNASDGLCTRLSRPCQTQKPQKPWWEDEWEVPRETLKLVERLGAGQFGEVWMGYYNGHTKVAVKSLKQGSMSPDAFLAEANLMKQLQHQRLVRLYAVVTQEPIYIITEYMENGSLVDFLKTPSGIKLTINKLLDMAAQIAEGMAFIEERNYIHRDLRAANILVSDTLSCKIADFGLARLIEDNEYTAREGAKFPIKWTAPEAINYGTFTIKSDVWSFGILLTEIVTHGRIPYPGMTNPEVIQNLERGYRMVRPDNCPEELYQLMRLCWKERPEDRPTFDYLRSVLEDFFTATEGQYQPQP
UniProt P21728, sequence (whole entry, looked up): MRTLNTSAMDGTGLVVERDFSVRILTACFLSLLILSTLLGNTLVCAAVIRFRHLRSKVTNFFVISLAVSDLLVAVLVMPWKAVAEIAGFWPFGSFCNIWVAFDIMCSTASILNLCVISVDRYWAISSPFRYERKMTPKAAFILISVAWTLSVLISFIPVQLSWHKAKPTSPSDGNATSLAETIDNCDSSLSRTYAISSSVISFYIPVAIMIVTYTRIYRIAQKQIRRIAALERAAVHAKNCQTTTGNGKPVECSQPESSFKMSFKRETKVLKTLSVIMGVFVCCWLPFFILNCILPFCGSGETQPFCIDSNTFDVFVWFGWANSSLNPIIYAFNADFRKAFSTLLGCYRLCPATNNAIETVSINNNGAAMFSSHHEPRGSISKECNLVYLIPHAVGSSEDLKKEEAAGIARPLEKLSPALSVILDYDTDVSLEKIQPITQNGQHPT
UniProt Q8NG66, sequence (whole entry, looked up): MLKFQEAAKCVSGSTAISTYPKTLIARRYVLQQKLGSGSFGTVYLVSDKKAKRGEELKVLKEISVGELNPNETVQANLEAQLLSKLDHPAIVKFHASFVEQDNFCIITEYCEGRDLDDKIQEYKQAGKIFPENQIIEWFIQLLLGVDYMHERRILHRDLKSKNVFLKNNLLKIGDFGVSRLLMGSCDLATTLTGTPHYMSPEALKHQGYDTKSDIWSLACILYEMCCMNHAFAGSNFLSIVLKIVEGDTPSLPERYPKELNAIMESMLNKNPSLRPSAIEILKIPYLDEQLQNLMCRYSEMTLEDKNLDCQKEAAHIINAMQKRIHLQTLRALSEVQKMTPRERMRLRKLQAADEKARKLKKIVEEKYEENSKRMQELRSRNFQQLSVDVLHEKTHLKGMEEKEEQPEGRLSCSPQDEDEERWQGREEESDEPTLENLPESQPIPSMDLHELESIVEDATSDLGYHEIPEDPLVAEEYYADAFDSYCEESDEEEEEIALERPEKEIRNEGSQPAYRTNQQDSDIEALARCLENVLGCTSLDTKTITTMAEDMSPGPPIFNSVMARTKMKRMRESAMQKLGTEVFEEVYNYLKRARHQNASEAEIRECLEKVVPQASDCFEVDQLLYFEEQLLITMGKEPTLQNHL
UniProt P23975, sequence (whole entry, looked up): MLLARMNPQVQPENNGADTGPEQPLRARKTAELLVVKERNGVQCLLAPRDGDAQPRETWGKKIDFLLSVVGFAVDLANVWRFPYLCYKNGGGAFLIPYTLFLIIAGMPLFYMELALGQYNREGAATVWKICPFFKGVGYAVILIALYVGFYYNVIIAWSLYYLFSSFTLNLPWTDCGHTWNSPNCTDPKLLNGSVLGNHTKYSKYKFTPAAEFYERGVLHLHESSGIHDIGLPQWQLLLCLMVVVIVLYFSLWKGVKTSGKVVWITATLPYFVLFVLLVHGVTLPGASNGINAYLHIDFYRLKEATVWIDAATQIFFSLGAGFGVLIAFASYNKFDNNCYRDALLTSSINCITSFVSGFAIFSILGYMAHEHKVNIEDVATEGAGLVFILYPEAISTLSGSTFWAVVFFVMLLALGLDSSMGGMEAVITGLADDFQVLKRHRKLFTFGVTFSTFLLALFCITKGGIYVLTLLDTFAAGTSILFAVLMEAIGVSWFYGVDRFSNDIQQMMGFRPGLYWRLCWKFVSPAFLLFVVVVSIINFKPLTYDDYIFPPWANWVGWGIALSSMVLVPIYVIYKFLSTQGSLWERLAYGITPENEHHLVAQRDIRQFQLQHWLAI
UniProt P06213, sequence (whole entry, looked up): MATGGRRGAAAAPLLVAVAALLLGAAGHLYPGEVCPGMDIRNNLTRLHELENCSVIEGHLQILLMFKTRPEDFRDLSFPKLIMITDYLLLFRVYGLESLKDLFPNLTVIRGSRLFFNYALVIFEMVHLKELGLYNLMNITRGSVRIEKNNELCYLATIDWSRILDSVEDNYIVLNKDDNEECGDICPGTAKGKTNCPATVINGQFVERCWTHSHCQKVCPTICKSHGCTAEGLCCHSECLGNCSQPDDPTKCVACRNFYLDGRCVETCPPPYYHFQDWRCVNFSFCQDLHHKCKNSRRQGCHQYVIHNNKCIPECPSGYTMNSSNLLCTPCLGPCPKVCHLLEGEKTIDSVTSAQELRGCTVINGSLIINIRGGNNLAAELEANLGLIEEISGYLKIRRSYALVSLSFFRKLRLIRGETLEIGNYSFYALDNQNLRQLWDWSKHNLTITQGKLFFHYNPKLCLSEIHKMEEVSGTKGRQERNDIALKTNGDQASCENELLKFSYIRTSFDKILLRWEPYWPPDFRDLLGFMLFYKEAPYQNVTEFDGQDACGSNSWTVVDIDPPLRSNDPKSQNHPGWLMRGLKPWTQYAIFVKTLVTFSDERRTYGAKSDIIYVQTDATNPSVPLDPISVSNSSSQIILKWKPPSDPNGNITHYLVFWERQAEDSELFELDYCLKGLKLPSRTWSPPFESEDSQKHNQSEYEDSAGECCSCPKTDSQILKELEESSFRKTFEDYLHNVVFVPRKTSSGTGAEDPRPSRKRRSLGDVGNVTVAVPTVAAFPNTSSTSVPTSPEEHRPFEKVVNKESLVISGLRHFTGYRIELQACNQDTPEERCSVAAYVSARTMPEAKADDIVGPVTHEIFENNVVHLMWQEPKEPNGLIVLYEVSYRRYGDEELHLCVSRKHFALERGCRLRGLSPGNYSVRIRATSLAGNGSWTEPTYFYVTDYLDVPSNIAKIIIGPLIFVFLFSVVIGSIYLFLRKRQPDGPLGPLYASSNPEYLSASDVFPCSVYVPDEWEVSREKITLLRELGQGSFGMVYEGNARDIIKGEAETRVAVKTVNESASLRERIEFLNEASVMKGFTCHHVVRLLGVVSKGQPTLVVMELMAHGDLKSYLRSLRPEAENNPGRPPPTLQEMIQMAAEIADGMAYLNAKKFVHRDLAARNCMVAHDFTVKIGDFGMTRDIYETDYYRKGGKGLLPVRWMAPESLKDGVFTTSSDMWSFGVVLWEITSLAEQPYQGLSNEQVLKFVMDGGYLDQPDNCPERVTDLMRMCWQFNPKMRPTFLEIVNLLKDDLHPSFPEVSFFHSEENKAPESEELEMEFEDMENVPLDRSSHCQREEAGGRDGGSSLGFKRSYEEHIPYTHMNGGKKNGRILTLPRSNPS

Study 1
Target: Calcium/calmodulin-dependent protein kinase type II subunit alpha (CAMK2A, Homo sapiens, UniProt Q9UQM7)
UniProt Q9UQM7, sequence (whole entry, looked up): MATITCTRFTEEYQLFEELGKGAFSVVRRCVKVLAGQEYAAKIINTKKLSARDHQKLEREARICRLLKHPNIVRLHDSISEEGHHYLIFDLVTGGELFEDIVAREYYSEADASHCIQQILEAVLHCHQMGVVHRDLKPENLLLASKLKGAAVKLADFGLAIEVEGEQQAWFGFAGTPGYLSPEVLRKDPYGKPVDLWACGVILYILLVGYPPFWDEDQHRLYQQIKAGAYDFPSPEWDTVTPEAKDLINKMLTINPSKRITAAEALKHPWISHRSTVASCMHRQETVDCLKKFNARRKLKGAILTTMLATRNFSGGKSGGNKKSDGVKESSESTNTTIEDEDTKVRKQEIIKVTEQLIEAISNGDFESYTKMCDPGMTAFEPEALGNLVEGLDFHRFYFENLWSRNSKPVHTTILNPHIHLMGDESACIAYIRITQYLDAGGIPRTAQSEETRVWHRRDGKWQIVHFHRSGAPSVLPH
Observed: enzyme activity
Mode: inhibitor
Tested at: 10 µM
`Oc1cc(O)c2c(c1)O[C@@H](c1cc(O)c(O)c(O)c1)[C@H](O)C2` gave an inhibition of 10%.
`CC1(C)C=Cc2c(ccc(-c3coc4cc(O)ccc4c3=O)c2O)O1` gave an inhibition of 7%.
`C/C=C(/C(=C/C)c1ccc(O)cc1)c1ccc(O)cc1` has an inhibition of 2%.
The inhibition of `C=C1C(=O)[C@]23[C@H](O)[C@H]1CC[C@H]2[C@@]12CO[C@]3(O)[C@@H](O)[C@@H]1C(C)(C)CC[C@@H]2O` is reported as -12%.
For `CC(C(=O)O)c1cccc(C(=O)c2ccccc2)c1` (centres unmarked), the inhibition was -12%.
For `COc1c(C=O)c(O)cc2c1C(=O)c1ccccc1C2=O`, the inhibition was -8%.
With `O=c1cc(-c2ccc(O)cc2)oc2c([C@@H]3O[C@H](CO)[C@@H](O[C@@H]4O[C@H](CO)[C@@H](O)[C@H](O)[C@H]4O)[C@H](O)[C@H]3O)c(O)cc(O)c12` the inhibition was 7%.
`COc1c(/C=C/C(=O)c2ccc(O)cc2)ccc(O)c1CC=C(C)C` gave an inhibition of -60%.

Study 2
Target: vanadate, free oxyanion
Technique: microfluidic competitive inhibition
Sample: in vitro, cell-free expressed
Tested at: not given
Notes: derived from inhibition constants, unchanged parent 676 nM
Direction: lower = stronger binding
Starting sequence: PafA, mature enzyme, eGFP fusion (Elizabethkingia meningoseptica, UniProt Q9KJX5); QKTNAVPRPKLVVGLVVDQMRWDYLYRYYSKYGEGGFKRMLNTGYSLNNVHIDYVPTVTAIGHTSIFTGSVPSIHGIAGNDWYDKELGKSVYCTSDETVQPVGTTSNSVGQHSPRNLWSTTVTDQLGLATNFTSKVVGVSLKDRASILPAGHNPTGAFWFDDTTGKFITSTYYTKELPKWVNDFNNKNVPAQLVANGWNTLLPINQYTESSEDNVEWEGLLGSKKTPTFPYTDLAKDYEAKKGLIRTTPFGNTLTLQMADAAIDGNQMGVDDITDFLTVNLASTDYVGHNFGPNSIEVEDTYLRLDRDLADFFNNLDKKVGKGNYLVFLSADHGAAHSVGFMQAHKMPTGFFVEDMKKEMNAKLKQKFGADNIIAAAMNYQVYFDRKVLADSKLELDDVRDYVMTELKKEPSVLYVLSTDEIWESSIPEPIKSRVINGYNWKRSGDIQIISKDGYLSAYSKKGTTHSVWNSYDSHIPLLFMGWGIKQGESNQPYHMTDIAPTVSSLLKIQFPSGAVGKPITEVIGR
`S412V`: “oxyanion analog dissociation constant” 906 nM.
For `N214V`, “oxyanion analog dissociation constant” read 621 nM.
Under “oxyanion analog dissociation constant”, `S211G` is recorded as 629 nM.
Under “oxyanion analog dissociation constant”, `D308G` is recorded as 571 nM.
Under “oxyanion analog dissociation constant”, `L220G` is recorded as 594 nM.
Under “oxyanion analog dissociation constant”, `A335V` is recorded as 984 nM.
`T68G`: “oxyanion analog dissociation constant” 284 nM.
Under “oxyanion analog dissociation constant”, `L456V` is recorded as 1090 nM.
Under “oxyanion analog dissociation constant”, `L220V` is recorded as 908 nM.
`A195V` — result for “oxyanion analog dissociation constant”: 780 nM.
`S504V` — result for “oxyanion analog dissociation constant”: 608 nM.
`F160G` — result for “oxyanion analog dissociation constant”: 1170 nM.
For `S433G`, “oxyanion analog dissociation constant” read 657 nM.
`G197V` — result for “oxyanion analog dissociation constant”: 671 nM.
`G110A`: “oxyanion analog dissociation constant” 690 nM.
For `A78V`, “oxyanion analog dissociation constant” read 692 nM.
For `S46G`, “oxyanion analog dissociation constant” read 580 nM.
Under “oxyanion analog dissociation constant”, `K85G` is recorded as 793 nM.
For `L41G`, “oxyanion analog dissociation constant” read 830 nM.
For `I431G`, “oxyanion analog dissociation constant” read 782 nM.
`A235V` — result for “oxyanion analog dissociation constant”: 721 nM.
`Q487G`: “oxyanion analog dissociation constant” 644 nM.
For `E489V`, “oxyanion analog dissociation constant” read 752 nM.
`L141G`: “oxyanion analog dissociation constant” 8850 nM.
For `T155V`, “oxyanion analog dissociation constant” read 599 nM.

Study 3
SMILES: CNC(=O)c1ccc(-c2cnn3ccc(C(=O)N(C)c4ccc(Cl)c(C(=O)O)c4)cc23)cc1
For ERBB2 (Homo sapiens, UniProt P04626); enzyme activity, inhibitor: IC50 read over 30 µM.
The IC50 was over 30 µM (Insulin receptor (INSR, Homo sapiens, UniProt P06213); enzyme activity, inhibitor).
For DRD3 (Homo sapiens, UniProt P35462); cell-free assay: IC50 read over 30 µM.
For NEK11 (Homo sapiens, UniProt Q8NG66); enzyme activity, inhibitor: IC50 read over 30 µM.
The IC50 was over 30 µM (DRD1 (Homo sapiens, UniProt P21728); cell-free assay).
SLC6A2 (Homo sapiens, UniProt P23975); cell-free assay — IC50: over 30 µM.
Prothrombin (F2, Homo sapiens, UniProt P00734); cell-free assay — IC50: over 30 µM.
LCK (Homo sapiens, UniProt P06239); enzyme activity, inhibitor — IC50: over 30 µM.
It gave 25 µM for IC50 (GSK3B (Homo sapiens, UniProt P49841); enzyme activity, inhibitor).

Study 4
SMILES: CO[C@@H]1[C@@H](OC(N)=O)[C@@H](O)[C@H](Oc2ccc3c(O)c(NC(=O)c4ccc(O)c(CC=C(C)C)c4)c(=O)oc3c2C)OC1(C)C
Host: FVB/129P2 mice, Brca1-/- Trp53-/- TNBC allograft
Route: intraperitoneal
Dose: 100 mg/kg twice daily
The tumour volume was 654 mm3 and 1990 mm3 and 402 mm3 (31 days).
The tumour volume was 786 mm3 and 1230 mm3 and 2810 mm3 and 282 mm3 and 658 mm3 and 164 mm3 (13 days).
The tumour volume was 187 mm3 and 624 mm3 and 2660 mm3 and 1220 mm3 (27 days).
43 days — tumour volume: 1510 mm3.
It gave 3330 mm3 and 762 mm3 for tumour volume (37 days).
7 days — tumour volume: 159 mm3 and 756 mm3 and 180 mm3 and 1350 mm3 and 988 mm3 and 1450 mm3 and 887 mm3.
It gave 2540 mm3 for tumour volume (45 days).

Mixed results
For `O=C1NC(c2ccccn2)Sc2ccccc21` (centres unmarked), the remaining binding was 100% (Cyclin-dependent kinase 2 homolog (CRK2, Plasmodium falciparum, UniProt P61075); cell-free assay, competition with immobilised ligand; 1 µM).

Excerpt of the above (study 1):
`CC1(C)C=Cc2c(ccc(-c3coc4cc(O)ccc4c3=O)c2O)O1` gave an inhibition of 7%.
`C/C=C(/C(=C/C)c1ccc(O)cc1)c1ccc(O)cc1` has an inhibition of 2%.
The inhibition of `C=C1C(=O)[C@]23[C@H](O)[C@H]1CC[C@H]2[C@@]12CO[C@]3(O)[C@@H](O)[C@@H]1C(C)(C)CC[C@@H]2O` is reported as -12%.
For `CC(C(=O)O)c1cccc(C(=O)c2ccccc2)c1` (centres unmarked), the inhibition was -12%.
